# Published values of several laboratories.
# Compare with care: the assays were run in different laboratories. Several values in a cell are separate wells, animals, samples, runs or records. ± marks the error that the study gave.
# CALCR extracellular domain: Calcitonin receptor, extracellular domain (CALCR, Homo sapiens, UniProt P30988)
# UniProt P30988, sequence (whole entry, looked up): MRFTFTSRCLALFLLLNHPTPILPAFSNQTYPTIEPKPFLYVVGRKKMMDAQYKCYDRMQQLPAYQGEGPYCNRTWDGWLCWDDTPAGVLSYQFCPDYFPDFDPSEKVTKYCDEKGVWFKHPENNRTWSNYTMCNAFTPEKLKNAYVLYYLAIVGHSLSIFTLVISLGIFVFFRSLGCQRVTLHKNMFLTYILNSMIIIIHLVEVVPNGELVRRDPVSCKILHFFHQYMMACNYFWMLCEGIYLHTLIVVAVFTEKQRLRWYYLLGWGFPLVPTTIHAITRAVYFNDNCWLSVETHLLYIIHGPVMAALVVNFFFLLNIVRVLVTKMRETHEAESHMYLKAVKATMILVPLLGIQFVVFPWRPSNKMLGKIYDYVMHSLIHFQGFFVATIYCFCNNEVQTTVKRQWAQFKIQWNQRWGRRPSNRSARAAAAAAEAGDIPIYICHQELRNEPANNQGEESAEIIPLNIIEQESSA
# Nuclear receptor subfamily 2 group C member 2 ligand-binding domain: Nuclear receptor subfamily 2 group C member 2, ligand-binding domain (Homo sapiens, UniProt P49116)
# UniProt P49116, sequence (whole entry, looked up): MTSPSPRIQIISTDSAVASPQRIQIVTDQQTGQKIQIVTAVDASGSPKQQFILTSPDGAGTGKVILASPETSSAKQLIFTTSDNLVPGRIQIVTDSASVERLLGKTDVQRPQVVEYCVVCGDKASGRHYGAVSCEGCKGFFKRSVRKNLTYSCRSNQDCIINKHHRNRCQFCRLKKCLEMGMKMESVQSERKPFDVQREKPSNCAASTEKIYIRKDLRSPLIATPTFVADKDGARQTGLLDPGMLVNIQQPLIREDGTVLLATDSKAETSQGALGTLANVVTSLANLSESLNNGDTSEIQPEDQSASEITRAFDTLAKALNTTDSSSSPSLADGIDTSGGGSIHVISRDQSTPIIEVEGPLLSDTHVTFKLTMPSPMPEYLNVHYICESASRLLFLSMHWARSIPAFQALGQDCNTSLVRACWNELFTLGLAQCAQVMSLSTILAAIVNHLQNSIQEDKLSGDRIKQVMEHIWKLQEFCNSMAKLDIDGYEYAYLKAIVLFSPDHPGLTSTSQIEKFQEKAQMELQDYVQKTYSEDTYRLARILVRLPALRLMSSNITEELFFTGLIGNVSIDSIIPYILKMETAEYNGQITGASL
# AHSG asialo: Alpha-2-HS-glycoprotein, asialo (AHSG, Bos taurus, UniProt P12763)
# UniProt P02911, sequence (whole entry, looked up): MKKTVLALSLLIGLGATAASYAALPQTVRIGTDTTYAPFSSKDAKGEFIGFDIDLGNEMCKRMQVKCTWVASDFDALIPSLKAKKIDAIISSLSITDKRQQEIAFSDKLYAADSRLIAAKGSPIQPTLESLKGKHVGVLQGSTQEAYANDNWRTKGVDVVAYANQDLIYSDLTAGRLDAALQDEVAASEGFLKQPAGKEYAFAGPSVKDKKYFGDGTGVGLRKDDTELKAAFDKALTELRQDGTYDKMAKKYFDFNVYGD
# UniProt P12763, sequence (whole entry, looked up): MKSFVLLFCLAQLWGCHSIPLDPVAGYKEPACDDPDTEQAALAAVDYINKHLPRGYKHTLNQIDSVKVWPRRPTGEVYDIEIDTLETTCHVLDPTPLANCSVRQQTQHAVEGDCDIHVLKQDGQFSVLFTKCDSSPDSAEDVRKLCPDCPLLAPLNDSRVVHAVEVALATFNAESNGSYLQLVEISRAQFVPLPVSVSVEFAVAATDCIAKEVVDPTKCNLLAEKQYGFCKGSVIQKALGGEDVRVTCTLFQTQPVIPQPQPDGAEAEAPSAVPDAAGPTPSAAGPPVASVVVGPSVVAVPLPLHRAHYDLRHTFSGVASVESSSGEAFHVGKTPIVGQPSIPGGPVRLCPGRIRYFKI
# UniProt P13569, sequence (whole entry, unmodified, looked up): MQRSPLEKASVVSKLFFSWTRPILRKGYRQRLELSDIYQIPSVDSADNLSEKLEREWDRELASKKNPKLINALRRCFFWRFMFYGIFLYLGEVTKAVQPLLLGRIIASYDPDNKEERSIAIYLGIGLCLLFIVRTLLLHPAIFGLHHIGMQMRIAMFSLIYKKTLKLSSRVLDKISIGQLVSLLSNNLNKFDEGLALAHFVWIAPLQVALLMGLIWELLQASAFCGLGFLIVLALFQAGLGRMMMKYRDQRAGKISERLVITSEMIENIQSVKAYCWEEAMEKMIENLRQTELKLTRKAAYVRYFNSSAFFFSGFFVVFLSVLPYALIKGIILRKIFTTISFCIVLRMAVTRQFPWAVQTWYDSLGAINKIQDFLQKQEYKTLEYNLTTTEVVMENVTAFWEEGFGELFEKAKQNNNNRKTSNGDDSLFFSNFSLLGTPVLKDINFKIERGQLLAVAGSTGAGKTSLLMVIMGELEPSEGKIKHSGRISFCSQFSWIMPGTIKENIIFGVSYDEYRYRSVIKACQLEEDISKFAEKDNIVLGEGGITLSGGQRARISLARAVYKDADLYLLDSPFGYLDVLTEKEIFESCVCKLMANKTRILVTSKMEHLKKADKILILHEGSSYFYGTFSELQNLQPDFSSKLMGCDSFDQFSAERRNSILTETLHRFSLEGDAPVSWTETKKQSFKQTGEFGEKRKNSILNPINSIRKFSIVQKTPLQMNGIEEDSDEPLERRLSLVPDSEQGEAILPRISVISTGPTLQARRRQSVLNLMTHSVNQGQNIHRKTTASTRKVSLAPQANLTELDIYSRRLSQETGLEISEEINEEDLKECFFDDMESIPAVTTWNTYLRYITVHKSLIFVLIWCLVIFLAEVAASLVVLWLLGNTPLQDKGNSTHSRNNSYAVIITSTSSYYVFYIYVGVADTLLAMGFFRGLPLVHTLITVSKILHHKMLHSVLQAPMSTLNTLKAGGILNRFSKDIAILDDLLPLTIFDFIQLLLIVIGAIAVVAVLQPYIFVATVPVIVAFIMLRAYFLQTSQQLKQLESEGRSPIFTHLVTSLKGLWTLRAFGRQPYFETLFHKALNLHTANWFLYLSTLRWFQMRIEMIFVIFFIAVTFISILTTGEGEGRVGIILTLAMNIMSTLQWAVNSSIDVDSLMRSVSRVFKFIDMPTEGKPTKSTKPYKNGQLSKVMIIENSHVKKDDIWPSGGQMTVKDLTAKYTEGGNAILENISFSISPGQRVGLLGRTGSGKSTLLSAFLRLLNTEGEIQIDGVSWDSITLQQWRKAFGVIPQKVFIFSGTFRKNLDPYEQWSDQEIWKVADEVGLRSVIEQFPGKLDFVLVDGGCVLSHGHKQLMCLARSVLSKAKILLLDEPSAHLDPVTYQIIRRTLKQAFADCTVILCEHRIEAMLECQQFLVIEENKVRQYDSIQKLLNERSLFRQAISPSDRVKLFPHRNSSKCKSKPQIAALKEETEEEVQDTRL
# UniProt P63208, sequence (whole entry, looked up): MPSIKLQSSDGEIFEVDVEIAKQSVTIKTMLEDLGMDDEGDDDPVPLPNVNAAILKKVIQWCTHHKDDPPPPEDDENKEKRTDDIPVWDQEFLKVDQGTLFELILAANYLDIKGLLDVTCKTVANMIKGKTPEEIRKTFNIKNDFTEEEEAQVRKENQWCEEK
# UniProt Q60932, sequence (whole entry, unmodified, looked up): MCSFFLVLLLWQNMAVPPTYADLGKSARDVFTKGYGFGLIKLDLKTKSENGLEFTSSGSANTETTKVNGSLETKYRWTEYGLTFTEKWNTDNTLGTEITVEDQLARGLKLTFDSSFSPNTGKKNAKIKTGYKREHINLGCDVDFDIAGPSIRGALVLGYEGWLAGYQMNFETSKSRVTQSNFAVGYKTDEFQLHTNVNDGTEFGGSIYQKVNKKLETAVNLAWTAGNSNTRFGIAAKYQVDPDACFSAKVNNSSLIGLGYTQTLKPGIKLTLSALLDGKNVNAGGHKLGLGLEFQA
# UniProt Q9UQM7, sequence (whole entry, looked up): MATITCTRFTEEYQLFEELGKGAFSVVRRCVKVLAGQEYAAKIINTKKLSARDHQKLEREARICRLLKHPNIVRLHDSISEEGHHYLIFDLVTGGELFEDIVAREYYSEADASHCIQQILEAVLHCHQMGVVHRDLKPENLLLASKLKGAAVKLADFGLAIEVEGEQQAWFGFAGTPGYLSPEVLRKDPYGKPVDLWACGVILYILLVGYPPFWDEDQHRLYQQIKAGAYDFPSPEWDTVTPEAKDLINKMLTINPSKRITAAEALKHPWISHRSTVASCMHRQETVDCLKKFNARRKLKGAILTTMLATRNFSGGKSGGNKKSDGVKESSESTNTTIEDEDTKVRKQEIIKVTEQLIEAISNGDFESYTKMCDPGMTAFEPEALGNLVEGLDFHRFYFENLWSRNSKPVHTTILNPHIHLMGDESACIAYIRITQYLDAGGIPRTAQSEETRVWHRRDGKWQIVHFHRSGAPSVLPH
# UniProt Q15645, sequence (whole entry, looked up): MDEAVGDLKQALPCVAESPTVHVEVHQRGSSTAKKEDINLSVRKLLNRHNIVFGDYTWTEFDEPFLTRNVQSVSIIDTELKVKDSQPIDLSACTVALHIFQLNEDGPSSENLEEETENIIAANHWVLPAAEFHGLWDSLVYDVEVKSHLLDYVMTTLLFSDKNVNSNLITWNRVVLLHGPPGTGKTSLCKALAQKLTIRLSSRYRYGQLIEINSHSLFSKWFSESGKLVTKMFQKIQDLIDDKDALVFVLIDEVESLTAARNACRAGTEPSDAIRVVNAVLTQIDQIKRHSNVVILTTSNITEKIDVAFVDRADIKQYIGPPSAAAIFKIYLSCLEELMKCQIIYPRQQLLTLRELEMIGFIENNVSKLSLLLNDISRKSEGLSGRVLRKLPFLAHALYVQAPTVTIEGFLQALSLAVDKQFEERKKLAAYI
# UniProt Q16774, sequence (whole entry, unmodified, looked up): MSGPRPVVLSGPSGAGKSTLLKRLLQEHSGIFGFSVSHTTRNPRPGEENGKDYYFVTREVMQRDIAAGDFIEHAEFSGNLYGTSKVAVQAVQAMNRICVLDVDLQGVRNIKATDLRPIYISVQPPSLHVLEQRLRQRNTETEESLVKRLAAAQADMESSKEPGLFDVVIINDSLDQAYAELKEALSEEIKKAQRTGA
SMILES,target,assay,test system,conditions,Kd
CC(C)C[C@H](NC(=O)[C@H](CCC(=O)O)NC(=O)[C@H](CCC(N)=O)NC(=O)[C@H](CO)NC(=O)CCCCCNC(=S)Nc1ccc2c(c1)C(=O)OC21c2ccc(O)cc2Oc2cc(O)ccc21)C(=O)N[C@@H](Cc1c[nH]cn1)C(=O)N[C@@H](CCCCN)C(=O)N[C@@H](CC(C)C)C(=O)N[C@@H](CCC(N)=O)C(=O)N[C@H](C(=O)N[C@@H](Cc1ccc(O)cc1)C(=O)N1CCC[C@H]1C(=O)N[C@@H](CCCNC(=N)N)C(=O)N[C@H](C(=O)N[C@@H](CC(N)=O)C(=O)N[C@H](C(=O)NCC(=O)N[C@@H](CO)C(=O)NCC(=O)N[C@H](C(=O)N1CCC[C@H]1C(N)=O)[C@@H](C)O)[C@@H](C)O)[C@@H](C)O)[C@@H](C)O,CALCR extracellular domain,"peptide binding, fluorescence polarization",,pH 7.4,1150 nM
O=c1ccn([C@@H]2O[C@H](COP(=O)(O)OP(=O)(O)O)[C@@H](O)[C@H]2O)c(=O)[nH]1,"ABO (Homo sapiens, UniProt P16442, G235S/G268A/L266M/R176G/W181E)",methyl-TROSY NMR titration lineshape analysis,,apo mutant enzyme,738000 ± 6000 nM
C#Cc1c(F)ccc2cc(O)cc(-c3ncc4c(N5CC6CCC(C5)N6)nc(OC[C@@]56CCCN5C[C@H](F)C6)nc4c3F)c12,"MRAS, GDP-bound (Homo sapiens, UniProt O14807)","binding, surface plasmon resonance",,,> 30000 nM
CN(C)CCCOc1nn(Cc2ccccc2)c2ccccc12,Nuclear receptor subfamily 2 group C member 2 ligand-binding domain,SPR imaging,,,1.16 nM
C[C@H](N)C(=O)N[C@@H](CCCNC(=N)N)C(=O)N[C@H](C(=O)N[C@@H](CCCCN)C(=O)N[C@@H](CCC(N)=O)C(=O)N[C@H](C(=O)N[C@@H](C)C(=O)N[C@@H](CCCNC(=N)N)C(=O)N[C@@H](CCCCN)C(=O)N[C@@H](CO)C(=O)O)[C@@H](C)O)[C@@H](C)O,"Transcriptional regulator ATRX (ATRX, Homo sapiens, UniProt P46100, F284Y/K251R)",binding,,,3600 nM
Nc1ncnc2c1ncn2[C@@H]1O[C@H](COP(=O)(O)OP(=O)(O)OP(=O)(O)O)[C@@H](O)[C@H]1O,"CFTR (Homo sapiens, UniProt P13569)","channel open probability, inside-out patch clamp",CHO-K1,,281000 nM
O=C(O)Cc1cn2nc(-c3ccc(Cl)cc3)ccc2n1,"CAMK2A (Homo sapiens, UniProt Q9UQM7)",surface plasmon resonance,,"pH 7.4, HBS-P buffer",960 nM
NC(=O)C1=CN([C@@H]2O[C@H](COP(=O)(O)OP(=O)(O)OC[C@H]3O[C@@H](n4cnc5c(N)ncnc54)[C@H](O)[C@@H]3O)[C@@H](O)[C@H]2O)C=CC1,"Non-selective voltage-gated ion channel VDAC1 (Vdac1, Mus musculus, UniProt Q60932, K249A)","binding, fluorescence polarization",,,6970 ± 160 nM
Cn1c([N+](=O)[O-])cnc1COC(N)=O,Nuclear receptor subfamily 2 group C member 2 ligand-binding domain,SPR imaging,,,47 nM
CCCN1CCN(c2ccc(-c3cncc(Cl)c3N3CCC4(CCNC4=O)CC3)cc2)CC1,CCNC human,SILAC competition,LS174T-L5 lysate,,11 nM
COC(=O)C[C@@H]1N=C(c2ccc(Cl)cc2)c2c(sc(C(=O)NCCOCCNC(=O)C[C@@H]3N=C(c4ccc(Cl)cc4)c4c(sc(C)c4C)-n4c(C)nnc43)c2C)-n2c(C)nnc21,"Bromodomain testis-specific protein, BD2 (BRDT, Homo sapiens, UniProt Q58F21)",,,,0.066 nM
CC(C)C[C@@H]1NC(=O)[C@H](C(C)C)NC(=O)CNC(=O)[C@H](CC(N)=O)NC(=O)[C@@H]2CCCN2C(=O)[C@H](Cc2ccc(O)cc2)NC(=O)[C@H](CCCNC(=N)N)NC(=O)[C@H](Cc2ccccc2)NC(=O)[C@@H](NC(=O)[C@H](CCCCN)NC(=O)[C@H](C)NC(=O)[C@H](CO)NC(=O)[C@H](C)NC(=O)[C@@H](N)Cc2ccc(O)cc2)CSSC[C@@H](C(=O)N[C@H](C(N)=O)[C@@H](C)O)NC(=O)[C@H](C)NC1=O,AHSG asialo,"binding, isothermal titration calorimetry",,"pH 7.0, 25 °C, together with: asialofetuin",65500 nM
N=C(N)NCCC[C@H](N)C(=O)O,"argT (Salmonella enterica, UniProt P02911)","binding, isothermal titration calorimetry",,"two-sets-of-sites model, site 2, mixture with SAR11_1210",9.83 nM and 10.5 nM
CN(C)CCC(c1ccc(Br)cc1)c1ccccn1 (stereo not drawn),Nuclear receptor subfamily 2 group C member 2 ligand-binding domain,SPR imaging,,,0.103 nM
N#Cc1c(O)c2c(-c3ccc(-c4ccccc4O)cc3)csc2[nH]c1=O,"5'-AMP-activated protein kinase catalytic subunit alpha-1, with beta1, gamma1 (PRKAA1, Homo sapiens, UniProt Q13131)","binding, SPR",,His-GST-tagged target immobilized,2460 nM
O=C(O)c1cccnc1,Nuclear receptor subfamily 2 group C member 2 ligand-binding domain,binding,,,1.14 nM
N[C@@H](CCC(=O)N[C@@H](CS)C(=O)NCC(=O)O)C(=O)O,Cu(I),"binding, bicinchoninic acid competition",,"1000 µM, together with: bicinchoninic acid 40 µM",0.0315 nM
Nc1nc(=O)[nH]cc1F,Nuclear receptor subfamily 2 group C member 2 ligand-binding domain,SPR imaging,,,9.86 nM
CC(C)(COP(=O)(O)OP(=O)(O)OC[C@H]1O[C@@H](n2cnc3c(N)ncnc32)[C@H](O)[C@@H]1OP(=O)(O)O)[C@@H](O)C(=O)NCCC(=O)NCCS,"N-alpha-acetyltransferase 16, NatA auxiliary subunit (NAA16, Homo sapiens, UniProt Q6N069)","competitor, competition MS pulldown",SW-620 cell lysate,together with: photo-immobilized beads,1380 nM
Nc1ncnc2c1ncn2[C@@H]1O[C@H](COP(=O)(O)OP(=O)(O)OP(=O)(O)O)[C@@H](O)[C@H]1O,"CKMT1A (Homo sapiens, UniProt P12532, E265Q)",microscale thermophoresis,,"pH 7.0, E227Q mutant, no substrate",22000 ± 16000 nM
C[S+](CC[C@H](N)C(=O)O)C[C@H]1O[C@@H](n2cnc3c(N)ncnc32)[C@H](O)[C@@H]1O (stereo partly drawn),"O-methyltransferase (Sorghum bicolor, UniProt A0A1B6PFV1)",ITC,,"25 °C, apo enzyme",112000 ± 15000 nM
COC(=O)c1cc(C)c2cc(C(=O)NC3CCN(c4cc(C)nn4C)C3)[nH]c2c1 (stereo not drawn),"S-phase kinase-associated protein 1 (SKP1, Homo sapiens, UniProt P63208)","binding, SPR",,20 °C,10000 nM
Nc1nc2c(ncn2[C@@H]2O[C@H](COP(=O)(O)OP(=O)(O)O)[C@@H](O)[C@H]2O)c(=O)[nH]1,"GUK1 (Homo sapiens, UniProt Q16774, R137A)","binding, ITC",,"25 °C, together with: GMP",105000 ± 70000 nM
CC(C)C[C@@H]1NC(=O)[C@H](C(C)C)NC(=O)CNC(=O)[C@H](CC(N)=O)NC(=O)[C@@H]2CCCN2C(=O)[C@H](Cc2ccc(O)cc2)NC(=O)[C@H](CCCNC(=N)N)NC(=O)[C@H](C)NC(=O)[C@@H](NC(=O)[C@H](CCCCN)NC(=O)[C@@H]2CCCN2C(=O)[C@H](CO)NC(=O)[C@H](C)NC(=O)[C@@H](N)Cc2ccc(O)cc2)CSSC[C@@H](C(=O)N[C@H](C(N)=O)[C@@H](C)O)NC(=O)[C@H](C)NC1=O,AHSG asialo,"binding, isothermal titration calorimetry",,"pH 7.0, 25 °C, together with: asialofetuin",202000 nM
NC(=O)c1ccc[n+]([C@@H]2O[C@H](COP(=O)([O-])OP(=O)(O)OC[C@H]3O[C@@H](n4cnc5c(N)ncnc54)[C@H](O)[C@@H]3O)[C@@H](O)[C@H]2O)c1,"Polyketide synthase, terminal amidation domain (Moorena producens, UniProt F4Y2B0)","binding, tryptophan fluorescence quenching",,,440000 ± 50000 nM
CC(=O)N[C@@H](COP(=O)(O)O)C(=O)N1CCC[C@H]1C(=O)N[C@H](C(=O)N[C@@H](Cc1ccccc1)C(N)=O)[C@@H](C)O,"Breast cancer type 1 susceptibility protein, tandem BRCT domains (BRCA1, Homo sapiens, UniProt P38398)",NMR titration,,"pH 7.0, 30 °C",~1000 nM
COc1cc(CCC(=O)CC(=O)CCc2ccc(O)c(OC)c2)ccc1O,"TRIP13 (Homo sapiens, UniProt Q15645)",,,,45.5 nM
CC(C)C[C@H](NC(=O)[C@H](CCCNC(=N)N)NC(=O)[C@@H](NC(=O)[C@H](CC(C)C)NC(=O)[C@H](Cc1ccccc1)NC(=O)[C@H](CC(N)=O)NC(=O)[C@H](C)NC(=O)CCCCCNC(=S)Nc1ccc2c(c1)C(=O)OC21c2ccc(O)cc2Oc2cc(O)ccc21)C(C)C)C(=O)N[C@@H](CCC(N)=O)C(=O)N[C@H](C(=O)N[C@@H](Cc1ccc(O)cc1)C(=O)N1CCC[C@H]1C(=O)N[C@@H](CCCNC(=N)N)C(=O)N[C@H](C(=O)N[C@@H](CC(N)=O)C(=O)N[C@H](C(=O)NCC(=O)N[C@@H](C)C(=O)N[C@@H](CC(N)=O)C(=O)N[C@H](C(=O)N1CCC[C@H]1C(N)=O)[C@@H](C)O)C(C)C)[C@@H](C)O)[C@@H](C)O,CALCR extracellular domain,"peptide binding, fluorescence polarization",,pH 7.4,97.7 nM
O=C(O)Cc1c(Br)[nH]c2ccccc12,"Cystic fibrosis transmembrane conductance regulator, NBD1 (CFTR, Homo sapiens, UniProt P13569, F494N)",surface plasmon resonance,,immobilized NBD1,964000 nM
Nc1nc2c(ncn2[C@@H]2O[C@@H]3COP(=O)(O)O[C@H]4[C@@H](OC(=O)NCCCCCCNC(=O)c5ccc6c(c5)C(=O)OC65c6ccc(O)cc6Oc6cc(O)ccc65)[C@H](n5cnc6c(=O)[nH]c(N)nc65)O[C@@H]4COP(=O)(O)O[C@H]3[C@H]2O)c(=O)[nH]1,"Uncharacterized protein (Caulobacter vibrioides, UniProt Q9ABT2)","binding, fluorescence competition",,together with: 2'-Fluo-AHC-c-di-GMP,2200 ± 500 nM
C[C@@H]1C[C@H]2[C@@H]3CCC4=CC(=O)C=C[C@]4(C)[C@@]3(Cl)[C@@H](O)C[C@]2(C)[C@@]1(OC(=O)c1ccco1)C(=O)CCl,Nuclear receptor subfamily 2 group C member 2 ligand-binding domain,SPR imaging,,,0.0761 nM
NCCc1ccc(O)c(O)c1,"speck (Drosophila melanogaster, UniProt Q94521)","binding, isothermal titration calorimetry",,,12600 nM
N#C[C@@H]1CCCN1C(=O)CNC12CC3CC(CC(O)(C3)C1)C2,Nuclear receptor subfamily 2 group C member 2 ligand-binding domain,SPR imaging,,,0.323 nM
Nc1nc2c(ncn2[C@@H]2O[C@H](COP(=O)(O)OP(=O)(O)OP(=O)(O)O)[C@@H](O)[C@H]2O)c(=O)[nH]1,"Deoxynucleoside triphosphate triphosphohydrolase SAMHD1, allosteric site A1 (SAMHD1, Homo sapiens, UniProt Q9Y3Z3)",fluorescence anisotropy displacement,,allosteric site A1,52000 ± 14000 nM
CN(C)CCC(c1ccc(Cl)cc1)c1ccccn1 (stereo not drawn),Nuclear receptor subfamily 2 group C member 2 ligand-binding domain,SPR imaging,,,0.0396 nM
Nc1nc2c(ncn2[C@@H]2O[C@@H]3COP(=O)(O)O[C@H]4[C@@H](O)[C@H](n5cnc6c(=O)[nH]c(N)nc65)O[C@@H]4COP(=O)(O)O[C@H]3[C@H]2O)c(=O)[nH]1,"Cell cycle histidine kinase CckA, DHp-CA domains (Caulobacter vibrioides, UniProt Q9X688)",isothermal titration calorimetry,Caulobacter crescentus,"12 °C, together with: AMPPNP 5 mM",33000 nM

# For quick reference, copied from above:
SMILES,target,assay,test system,conditions,Kd
COC(=O)c1cc(C)c2cc(C(=O)NC3CCN(c4cc(C)nn4C)C3)[nH]c2c1 (stereo not drawn),"S-phase kinase-associated protein 1 (SKP1, Homo sapiens, UniProt P63208)","binding, SPR",,20 °C,10000 nM
Nc1nc2c(ncn2[C@@H]2O[C@H](COP(=O)(O)OP(=O)(O)O)[C@@H](O)[C@H]2O)c(=O)[nH]1,"GUK1 (Homo sapiens, UniProt Q16774, R137A)","binding, ITC",,"25 °C, together with: GMP",105000 ± 70000 nM
N[C@@H](CCC(=O)N[C@@H](CS)C(=O)NCC(=O)O)C(=O)O,Cu(I),"binding, bicinchoninic acid competition",,"1000 µM, together with: bicinchoninic acid 40 µM",0.0315 nM
O=c1ccn([C@@H]2O[C@H](COP(=O)(O)OP(=O)(O)O)[C@@H](O)[C@H]2O)c(=O)[nH]1,"ABO (Homo sapiens, UniProt P16442, G235S/G268A/L266M/R176G/W181E)",methyl-TROSY NMR titration lineshape analysis,,apo mutant enzyme,738000 ± 6000 nM
Nc1nc(=O)[nH]cc1F,Nuclear receptor subfamily 2 group C member 2 ligand-binding domain,SPR imaging,,,9.86 nM
